Assay results from different studies.
A part holds a random share of what one study measured. Substitutions count along the parent as printed.

Study 1 — method: universal PBM; form: double-stranded DNA, one strand shown; medium: in vitro; tested at: 600 nM; direction: higher = stronger binding
Target: Sal-like protein 4, full length isoform A (SALL4, Homo sapiens, UniProt Q9UJQ4, residues 1-1053)
Sequence of UniProt Q9UJQ4 (whole entry, looked up): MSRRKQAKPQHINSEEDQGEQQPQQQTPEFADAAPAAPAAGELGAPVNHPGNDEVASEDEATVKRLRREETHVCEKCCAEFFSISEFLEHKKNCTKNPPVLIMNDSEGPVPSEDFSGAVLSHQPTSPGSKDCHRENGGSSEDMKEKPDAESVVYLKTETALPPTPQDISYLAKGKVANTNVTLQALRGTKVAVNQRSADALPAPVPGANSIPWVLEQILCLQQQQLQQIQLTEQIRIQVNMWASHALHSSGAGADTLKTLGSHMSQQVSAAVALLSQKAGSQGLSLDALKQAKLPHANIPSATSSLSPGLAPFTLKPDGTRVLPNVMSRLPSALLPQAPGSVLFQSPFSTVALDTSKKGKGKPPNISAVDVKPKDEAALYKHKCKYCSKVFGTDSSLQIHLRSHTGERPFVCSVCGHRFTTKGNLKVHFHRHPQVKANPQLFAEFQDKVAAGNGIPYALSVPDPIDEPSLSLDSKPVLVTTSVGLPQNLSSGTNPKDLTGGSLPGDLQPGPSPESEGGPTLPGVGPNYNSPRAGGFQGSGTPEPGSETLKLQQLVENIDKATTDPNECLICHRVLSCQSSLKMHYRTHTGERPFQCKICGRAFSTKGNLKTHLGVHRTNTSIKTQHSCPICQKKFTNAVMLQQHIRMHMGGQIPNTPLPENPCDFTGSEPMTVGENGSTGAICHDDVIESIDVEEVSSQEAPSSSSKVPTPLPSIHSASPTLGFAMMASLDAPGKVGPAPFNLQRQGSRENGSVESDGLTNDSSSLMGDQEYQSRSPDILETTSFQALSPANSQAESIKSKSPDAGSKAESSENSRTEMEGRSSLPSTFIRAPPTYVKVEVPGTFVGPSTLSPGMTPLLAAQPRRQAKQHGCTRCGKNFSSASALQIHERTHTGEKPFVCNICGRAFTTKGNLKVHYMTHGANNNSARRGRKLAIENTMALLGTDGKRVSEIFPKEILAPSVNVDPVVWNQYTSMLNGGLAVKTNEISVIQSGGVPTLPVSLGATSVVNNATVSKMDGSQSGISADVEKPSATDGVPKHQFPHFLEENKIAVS
Notes: 8-mer, flanks averaged, mean of replicates
Sequence | E-score
ACTAGGCA | -0.119
CCTCGTTA | 0.0776
GAGCCTCC | -0.232
GGTCCGAA | -0.106
AGTTCACC | -0.0962
ATCACACG | 0.208
AAGATTCC | 0.0817
GCCGCAGC | -0.293
GGATAACC | -0.165
TATGAAGA | 0.329
GGTCGACC | -0.188
CTTACTAC | 0.0899
ACTAAAGT | 0.0415
GGATTACC | -0.171
AGACTTCC | -0.0596
GCCTGGCA | -0.313
GCCTCTTA | -0.0932
GATTCGCC | -0.0723
CCTCTCGA | -0.227

Study 2 — method: RNA Bind-n-Seq; form: RNA; medium: in vitro; tested at: 1 µM; notes: whole 134-nt RNA, ends assumed; with: 150 mM KCl; relative to: input library; direction: higher = stronger binding
Target: Ras GTPase-activating protein-binding protein 1, C-terminal RGG region (G3BP1, Homo sapiens, UniProt Q13283)
Sequence of UniProt Q13283 (whole entry, looked up): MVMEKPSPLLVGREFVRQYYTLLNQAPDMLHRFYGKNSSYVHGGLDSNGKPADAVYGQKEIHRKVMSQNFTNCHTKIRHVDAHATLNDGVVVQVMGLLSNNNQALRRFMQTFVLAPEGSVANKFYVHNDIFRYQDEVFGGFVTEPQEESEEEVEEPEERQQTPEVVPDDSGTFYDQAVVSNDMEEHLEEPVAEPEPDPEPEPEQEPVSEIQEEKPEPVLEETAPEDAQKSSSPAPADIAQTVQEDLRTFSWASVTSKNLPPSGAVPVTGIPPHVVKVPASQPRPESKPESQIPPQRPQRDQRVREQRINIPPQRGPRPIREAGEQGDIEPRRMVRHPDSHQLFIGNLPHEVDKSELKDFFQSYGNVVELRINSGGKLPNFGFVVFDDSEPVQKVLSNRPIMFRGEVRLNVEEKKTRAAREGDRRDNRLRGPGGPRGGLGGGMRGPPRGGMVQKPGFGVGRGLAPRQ
Shared flanks, not repeated: GGGAGUUCUACAGUCCGACGAUC … UGGAAUUCUCGGGUGUCAAGG
Sequence | log2 enrichment
GUCCUGUGCUACACAUCGUAUGUACCGAAUCAAAUUUAAAUUUUUAAAUUUUUUUAAAAAAGUAUUAUGUUACGCCGUUCGGAUCUGCAC | -2.63
UCAAGUCCUGUGCUACACAUCGUAUGUACCGAAUCGGAAGGGAAGGGGAAGGGGAAAGUAUUAUGUUACGCCGUUCGGAUCUGCACUUCC | 0.487
AGUCCUGUGCUACACAUCGUAUGUACCGAAUCGGGGAAAAAGGGGAAAGGGGAGGGGAAAGUAUUAUGUUACGCCGUUCGGAUCUGCACU | 2.38
UGUGCUACACAUCGUAUGUACCGAAUCGGGGAAAAAAAGGGGAAAAAAAGGGGAAAAAGGGGAAAGUAUUAUGUUACGCCGUUCGGAUCU | 0.166
UGGGAGGUGGAUUUUGUUUAUUUUUUUAGCUCAUUUCCAGGGGUGGGAAUUUUUUUUUAAUAUGUGUCAUAAAUAAAGUUGUUUUUGAAA | 3.54
AAGUCCUGUGCUACACAUCGUAUGUACCGAAUCGGGUUUUGGUUUUGGGUUUUGGGGAAAGUAUUAUGUUACGCCGUUCGGAUCUGCACU | -0.831
AAGUCCUGUGCUACACAUCGUAUGUACCGAAUCGGGGUUUGGGGUUUGGGUUUGGGAAAGUAUUAUGUUACGCCGUUCGGAUCUGCACUU | 1.68
UGGGAGGUGGAUUUUGUUUAUUUUUUUAGCUCAUUUCCAGGGGUGGGAAUUUUUUUUUAAUAUGUAUCAUGAAUAAAGUUGUUUUUGAAA | 3.3
CUCAAGUCCUGUGCUACACAUCGUAUGUACCGAAUCGGCCCGGGCCCGGCCCGGAAAGUAUUAUGUUACGCCGUUCGGAUCUGCACUUCC | -1.34
CAAGUCCUGUGCUACACAUCGUAUGUACCGAAUCGGCCCGGGGCCCGGGCCCGGGAAAGUAUUAUGUUACGCCGUUCGGAUCUGCACUUC | -1.59
UCAAGUCCUGUGCUACACAUCGUAUGUACCGAAUCGGAAAAAAAGGAGGAAAGGAAAGUAUUAUGUUACGCCGUUCGGAUCUGCACUUCC | -1.5
UGGCCCUGGUGGCAUGCGGUGAGGAAGAGGUGGCCUCAUGGAUCGUGGUGGUCCCGGUGGAAUGUUCAGAGGUGGCCGUGGUGGAGACAG | 1.72
CCUGUGCUACACAUCGUAUGUACCGAAUCGGCCCCCCCGGGCCCCCCCGGGGCCCCCCCGGAAAGUAUUAUGUUACGCCGUUCGGAUCUG | -1.49
CCUGUGCUACACAUCGUAUGUACCGAAUCGGCCCCCCCGGGGCCCCCCCGGGCCCCCCCGGAAAGUAUUAUGUUACGCCGUUCGGAUCUG | -1.55

Study 3 — method: RNA Bind-n-Seq; form: RNA; medium: in vitro; tested at: 100 nM; relative to: input RNA pool; direction: higher = stronger binding
Target: RING finger protein unkempt homolog, zinc fingers 1-6, SBP tag (UNK, Homo sapiens, UniProt Q9C0B0, residues 30-357)
Sequence of UniProt Q9C0B0 (30-357, looked up): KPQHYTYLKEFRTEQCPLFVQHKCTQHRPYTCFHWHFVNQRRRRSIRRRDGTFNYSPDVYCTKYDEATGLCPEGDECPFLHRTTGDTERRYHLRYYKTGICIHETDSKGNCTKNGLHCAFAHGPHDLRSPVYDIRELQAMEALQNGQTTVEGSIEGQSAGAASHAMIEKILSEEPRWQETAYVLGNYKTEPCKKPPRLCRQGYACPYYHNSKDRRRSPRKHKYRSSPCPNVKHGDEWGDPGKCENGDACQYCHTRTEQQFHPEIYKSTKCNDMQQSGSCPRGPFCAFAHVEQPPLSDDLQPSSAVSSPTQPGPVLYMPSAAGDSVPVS
Notes: RNA with constant flanks, vertebrate orthologous sites, ends assumed
Shared flanks, not repeated: GGGAGUUCUACAGUCCGACGAUC … CAACAGAGGAUUGAGCAUCA
Sequence | bound/input enrichment
GCACUACCUAUACCAAUUUUACAACAUUGAAUGCAAACUAGUGAAUUUCAUAGUCACAGAGGAAGAUAGCUUUAGGGAACUGUCUCCAUGGGUUUUACUUGUGUAGGUUUUGAAAAUGUA | 1.06 ratio
CAGUUUAGAUAUUCUUUUAAUUUUUUUUCUUUUCCCUUAAUCCUUUUUUAUUUUUAAAAAUAGUUCUUUUGUAACGUGGUGUUCAAAAUGGAAUUGAAAACAGGCGCCUCUCUUUAAAAC | 7.16 ratio
AUCACAGUCGCUUUUUACCACCUCAAUGAGGUAGAGUCUCUCUUGGCAUGUGGUUGUUACAAGAGCCAGUCGUACCUGACAAGUCUUUCCACGUUUCAUUUCUUUCACAUUCUUGGUCUU | 0.595 ratio
AUCUGACUGCUGGAUGAAGACUGUUCCAAGUUAUAACCAAACAAAUAGCUCCAUGGACUUUAGAAAUUAUAUGAUGAGAGAUGAGAAUUUGGAACCACUGCCCAAAAACUGGGAAAUGGC | 0.978 ratio
AUCACAGUCGCUUUUUACCACCUCAAUGAGGUAGAGUCUCUCUUGGCAUGUGGUUGUUACAAGAGCCAGUCGUACCUGACAAGUCUCUCCACAUUUCAUUUCUUUCACAUUCUUGGUCUU | 0.483 ratio
UUCACCACUCCUGGGUGCGUGAUUGAGGGUGAAGCAUCCACCAGCACUUCAAGGGGUCCAUAGUAUUUUUUUUUGCUGCCUCAGAGUCCCCAGAGCCUUCGAGUAGAAGUGGCAGUAGCU | 1.93 ratio
UCUUCAUGGUGACACCUGGGCAGGUCUCUCAGCAUAUGAUAAUAGCCCAAGGUCGCCCUGUAGUCCAUCUCCUGUGACAUCACCACCCAGCCACAGUUCUUCCCACUCUGCCUGUCCUGU | 0.72 ratio
CUGCCUUUACCCUGCUGUAUAAUAAACAACCAGACACUUGGCAACUGUUGAUACAGAUGGUAGUCCCGAAUCACUUUUUAUAUGUUUUAACAUUUGAAAUUCAAGUGUACCUGCCAUAAC | 0.462 ratio
CCGAAAGGCCAAAUUCCCUCCUCCCUUCUACUGCUUCUACCAACUGGAAGCACAGAAAACUAGAAUUUCAUUAUUUUGUUUUGAAAAAAUAUAUGUUGAUUUCUUGUAACAUCCAAUAGG | 0.588 ratio
UAGUACUUAAGCCAACAACAGCUCUAAAAUGCUAUUUAUUUGUGUCUGUAAGUUUGUACAUAGUAAUACCAACCUCAUAUUGUUGCAGAUUUUUUUUUAUCAGUUUGAGUUUUGUUUUGU | 0.768 ratio
UACAAUCUCUACUCAAGCAGGUAUUUACGUACCACAAUAAGCCUUCAUUUGACAUAUUUACAGCUUUUCUAUUUUCCAGAUGAGAGAAAAGAAUUCCAUGCUUAGAGUUAAAUGUGGUCU | 0.542 ratio

Study 4 — method: protein binding microarray; form: double-stranded DNA, one strand shown; medium: in vitro; tested at: not given; relative to: not given; direction: higher = stronger binding
Target: Histone acetyltransferase KAT6A, both winged helices, GST fusion (KAT6A, Homo sapiens, UniProt Q92794, residues 1-181)
Notes: 8-mer, flanks averaged, mean of 2 arrays, mostly near background
Construct (chain): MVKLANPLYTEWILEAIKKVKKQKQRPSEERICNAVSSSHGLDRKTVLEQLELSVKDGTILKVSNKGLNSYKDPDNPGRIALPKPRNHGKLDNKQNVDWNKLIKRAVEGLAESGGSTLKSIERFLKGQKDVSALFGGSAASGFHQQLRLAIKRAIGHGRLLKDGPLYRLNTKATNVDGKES
Sequence | E-score
AATATAGT | -0.0184
GATCAATA | -0.101
ACATGAAC | 0.0229
TATCTCGA | -0.096
AACCTGGA | -0.118
AAATGAGC | -0.117
CGCTGTCC | 0.243
CTTTGGCC | -0.0659
CTTTGTAC | -0.172
GCATGTAA | 0.0537
CGTATCTA | 0.041
ATTAATAG | -0.147
ATCAGTGA | -0.115
AACATGCA | -0.0855
AAGACTAC | 0.0025
GGACTCAC | -0.0342

Study 5 — target: FOSB, bZIP domain (human); method: DHFR protein complementation; medium: yeast; relative to: wild-type JUN-FOS pair; direction: higher = stronger binding
Notes: single substitutions, most at no-binding floor
Starting sequence: JUN, bZIP domain (human); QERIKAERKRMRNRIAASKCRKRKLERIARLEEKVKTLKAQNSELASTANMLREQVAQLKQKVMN; partner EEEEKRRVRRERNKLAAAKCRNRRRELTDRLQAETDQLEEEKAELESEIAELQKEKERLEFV
Change | binding fitness [natural log]
R30W | -0.0166
K39V | -0.493
T48L | -0.0813
M51E | -0.103
L52V | -0.826
E33G | -0.305
T37D | -0.136
E54S | -0.208
L59T | -0.68
L52I | -0.473
E32W | -0.377
R30C | -0.032
A29I | -0.187
K34L | -0.171
K34Y | -0.169
T48G | -0.974
S47G | -0.102
A29T | -0.136
A57Y | -0.353
K34S | -0.198
S47T | -0.127
A49S | -0.594
L38T | -1.03
A29S | -0.124
A40R | -0.056

Study 6 — method: RNA Bind-n-Seq; form: RNA; medium: in vitro; tested at: 365 nM; relative to: no-protein control; direction: higher = stronger binding
Target: RNA binding protein fox-1 homolog 2, RRM domain, GST-SBP tag (RBFOX2, Homo sapiens, UniProt O43251-10, residues 100-194)
Notes: natural RNA segment, single round, ends assumed
Shared flanks, not repeated: GGGAGUUCUACAGUCCGACGAUC … UGGAAUUCUCGGGUGCCAA
Residues (chain): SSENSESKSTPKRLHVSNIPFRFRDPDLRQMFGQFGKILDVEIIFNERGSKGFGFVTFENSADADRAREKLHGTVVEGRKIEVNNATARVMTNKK
Sequence | RBNS enrichment (R)
UUGCCAACAGUCUCUAUGCUUAUUUACAUCUUCUACUGUUCAAACUAAGAGAUUUUUAAAUUCUGAAAAACUGCUUACAAUUCAUGUUUUCUAGCCACUCCACAAACCAC | 0.468
UGGCCCCUCCUCUGAAGGCCAGCAAGAGGUGGAGCAAGGAUCAACUGCUGUUCUGGAGUAGGGUUCCAUCUCCCAUUUCUUCCAGCUCUGCCAAGUUGGCCCUCCCUGCU | 0.424
GGGUUGUGUUUAUAUUCGGGGGGAGGGGUAUACUUAAUAAAGUUACUGCUGUCUGUCAGAUACCUCUGCCUGGUAUUGGAGAUUUCUUUUUCUUUAUCUUUUUCUGCCCC | 0.539
ACACCUAGAGGUUGAUUUCCUUUUUCAUCGAUGGUACUAUUUCUUAGUGUUUUAAAUUGGAACAUAUCUUGCCUCAUGAAGCUUUAAAUUAUAAUUUUCAGUUUCUCCCC | 0.365
UCACAAUACUAAAGGGAAAAAAUGGAUUCAAAGCUAGGAUUUCAGGGCCCAGCAGUGUUCCUCCAUCAGCAUGUUAGACAACUACACAGUAUGUUGUUAGUUUUGAAAGA | 10.7
UCUGGCUUAGAUUGAAAAAUGGGCUUCCUAAUGGGUUAAAUCCUUUAAAACAAGGAGUUGUGGGGGAAGGGUGUCGUGCACUCCUAGAGAAAGGUACACAGUUGCCCGGU | 1.05
CAUUCAUUUCUUUUACCUAUAGUGAAAUUAUUGAAUAGUAGUUUUUCUGAACUGUUGGAUUCUAGGCAUUCCUGAGAAAUUGAAAGUGGCUACCUUUCAUGUCAAAAUGU | 0.294
AGAGAACCUCAUCCAUGCCUGGAGAACAUCUAGAAAACCUUCAGCCAGCCUCCAGUGCUGUCGAGAGACCACCUUCCCCCGACCCGGAGGCACUUCCUUGGGGUCUUUCU | 0.209
CGUCUUACUGAAGAAGUCUUUCCAGCUAGAAAGAUGUUCUGACACUGUCUGAUCGUGAAGCACCUGAAUUUACAGAAGAUGCAGAAAGCCUCGUUUUCUCUGCGUGGUUC | 0.179
UUUACUGUGCAUGUCUCUGUACAAAGUGUACCUCUGGAAGCUGCCAAGUGAUAACACUGCUUUCUUAUACACUGGGAUCAUUGUCACUUGAAAAAAAAAACAUUAUUGUG | 1.11
AACUAGCUCUAAAGCUAGUUAGUGACAAAGUUGGAUACCAAAAAUAGCCAACACUAUGACAUAAAAACUUUGUGUUCAAAAUGUACAAUUCACUUUAUACAUUAUUAAUA | 0.344
AGUUUUCUUUAAGUAGCCUGUGCAGUCAUGCAUGUGCCUGAGUUGUCUGGAGCAGAGGCAAACAUCUGACUUCAUUCUUAGCCCCAAGCUGCCAUUUCUGAGUCCUUGAG | 1.87

For quick reference, copied from above (study 1):
Sequence | E-score
ACTAAAGT | 0.0415
GATTCGCC | -0.0723
AGTTCACC | -0.0962
CCTCGTTA | 0.0776
GCCTGGCA | -0.313
CCTCTCGA | -0.227
TATGAAGA | 0.329
CTTACTAC | 0.0899
AAGATTCC | 0.0817
GGTCCGAA | -0.106
GGATAACC | -0.165
GGTCGACC | -0.188
GAGCCTCC | -0.232
ATCACACG | 0.208
AGACTTCC | -0.0596
